Measured values from different studies.
Compare with care: the assays were run in different laboratories. Numbers after ± are the reported error. In brackets after ≈: the same amount, converted by molar mass.

O=c1[nH]cc(C(c2ccc(C(F)(F)F)cc2)c2c[nH]c(=O)[nH]c2=O)c(=O)[nH]1 — antiviral activity (HIV-1 subtype C; item: p24; concentration not given): inactive
Fc1ccc2c(c1)c1nc3ccc(Br)cc3c-1cn2Cc1cn(-c2ccccc2I)nn1 — apoptotic cells (Giardia duodenalis; EB/AO staining; concentration not given; baseline: untreated): increased
CC(C)C(C(=O)Nc1ccc(C(=O)NO)cc1)c1ccccc1 (stereo not drawn) — potency ratio (Lucilia cuprina; larval growth; baseline: diflubenzuron and dicyclanil, fold less potent): 50 to 100 fold
COc1ccc(-n2c(=O)c(C(=O)C3C(=O)CCCC3=O)nc3c(C)cccc32)cc1 — ED90 (Monochoria vaginalis; herbicidal activity, paddy pot test, visual rating; 28 days): 6.3 g a.i./10 a
CC(C)Oc1cccc(NC(=O)CCCN2C(=O)c3ccccc3C2=O)c1 — mRNA level (Arabidopsis thaliana; qRT-PCR, item: AtGH3.3 and IAA19; concentration not given, up to 30 min): increased
Oc1c(Br)ccc2cccnc12 — MIC (Aeromonas hydrophila; microbial growth, agar dilution): 35.7 µM
Nc1ccn(C[C@@H](CO)OCP(=O)(O)OCCCS(=O)(=O)CCCCCCCCCCC2CCC2)c(=O)n1 — selectivity index (human adenovirus 5; cytopathic effect; Adenoid 75; baseline: CC50 over EC50): 83
CN(C)c1ccc(C(=O)NCCCCCCC(=O)NO)cc1 — IC50 (Lucilia cuprina; pupation; LS strain, larvae on impregnated cotton wool; 216 h): 890 µg
CN1C[C@H](c2cccc(C(F)(F)F)c2)[C@@H](C(=O)Nc2ccccc2F)C1=O — dihydroorotate level (Arabidopsis thaliana; seedlings; 5 µM, 24 h): 22 ± 4.54 ng/g fresh weight
CC[C@@H](C)[C@@H](NC(=O)[C@@H](C)N)C(=O)N[C@H](CCCCN)C(=O)N[C@@H](C(=O)N[C@H](CCCNC(=N)N)C(=O)N[C@H](CCCCN)C(=O)N[C@H](CC(C)C)C(=O)N[C@H](Cc1ccccc1)C(=O)N[C@H](CCCCN)C(=O)N[C@H](CCCCN)C(=O)N[C@H](CC(C)C)C(=O)N[C@H](CC(C)C)C(=O)N[C@H](CCCNC(=N)N)C(N)=O)[C@H](C)CC — MIC of antibiotic (Escherichia coli; broth microdilution checkerboard, item: gentamicin; ATCC 25922, LB medium; concentration not given): 0.39 µg/mL
O=C(NO)c1cccc(C(=O)NCCc2ccccc2)c1 — IC50 (Lucilia cuprina; larval weight gain; LS strain, larvae on impregnated cotton wool; 24 h): > 1000 µg
COc1ccc(-c2nc(-c3ccccc3OC)[nH]c2-c2ccc(OC)cc2)cc1 — worm killing (Schistosoma mansoni; adult male worms; 5 µM): 0%
CC1=CC[C@@H]2C[C@H]1C2(C)C — choice of control (Mythimna separata; olfactory preference, Y-tube olfactometer; females; baseline: liquid paraffin control): 77%
CC[C@@H](C)[C@@H](NC(=O)[C@@H](C)NC(=O)[C@@H](CCCCN)NC(=O)[C@@H](CC(C)C)NC(=O)[C@@H](C)NC(=O)[C@H](NC(=O)[C@@H](CCCCN)NC(=O)[C@@H](CC(C)C)NC(=O)[C@H](NC(=O)[C@@H](CCCCN)NC(=O)[C@@H](CCCCN)NC(=O)[C@@H](CCCCN)NC(=O)[C@@H](C)NC(=O)[C@@H](CCCCN)NC(=O)[C@@H](CO)NC(=O)[C@@H](Cc1ccccc1)NC(=O)[C@H](NC(=O)[C@@H](CCCCN)NC(=O)[C@@H](CC(C)C)NC(=O)[C@@H](Cc1ccccc1)NC(=O)[C@@H](CO)NC(=O)[C@@H](CCCCN)NC(=O)[C@@H](Cc1c[nH]c2ccccc12)NC(=O)[C@@H](CCCCN)NC(C)=O)[C@H](C)O)C(C)C)[C@H](C)O)C(=O)N[C@H](CO)C(=O)N[C@H](CCCCN)C(N)=O — MIC (Acinetobacter baumannii; 821, Mueller-Hinton broth; 24 h, 37 °C): 0.7 µM
Nc1ncnc2c1c(Cl)cn2[C@@H]1O[C@H](CO)C[C@H]1O — EC50 (Trypanosoma vivax; parasite growth, resazurin; 24 h): 96 nM
CCCCCCCCCC(=O)N[C@@H](Cc1c[nH]c2ccccc12)C(=O)N[C@H](CC(N)=O)C(=O)N[C@@H](CC(=O)O)C(=O)N[C@@H]1C(=O)NCC(=O)N[C@@H](CCCNC(=O)OC2/C=C/CCCCC2)C(=O)N[C@@H](CC(=O)O)C(=O)N[C@H](C)C(=O)N[C@@H](CC(=O)O)C(=O)NCC(=O)N[C@H](CO)C(=O)N[C@@H]([C@H](C)CC(=O)O)C(=O)N[C@@H](CC(=O)c2ccccc2N)C(=O)O[C@@H]1C (stereo partly drawn) — activity improvement (Staphylococcus aureus; MRSA; concentration not given; baseline: UG gel over TAG gel): 67%
O=c1[nH]cc(C(c2cccc(Cl)c2)c2c[nH]c(=O)[nH]c2=O)c(=O)[nH]1 — IC50 (HIV-1 subtype C; viral replication, item: p24): 62.5 µg/mL (≈ 180 µM)
N#Cc1ccc2cccc(O)c2n1 — MIC (Listeria monocytogenes; microbial growth, agar dilution): 1500 µM
CCOC(=O)C1=C(C)NC2=C(C(=O)CC(C)(C)C2)C1c1ccc(OCC(=O)NN=Cc2cccc([N+](=O)[O-])c2)cc1OCC(=O)NN=Cc1cccc([N+](=O)[O-])c1 (stereo not drawn) — inhibition zone diameter (Listeria monocytogenes; NCTC 5348; concentration not given, 24 h, 37 °C): 8.1 ± 0.6 mm
O=C(/C=C/c1ccccc1)N[C@@H](CCCCCC(=O)NO)C(=O)Nc1cccc2cccnc12 — IC50 (Lucilia cuprina; larval weight gain; LS strain, larvae on impregnated cotton wool; 24 h): 13.9 µg
C=C(C)[C@@H]1CC[C@]2(CNCCN3CCN(S(C)(=O)=O)CC3)CC[C@]3(C)[C@H](CC[C@@H]4[C@@]5(C)CC[C@H](OC(=O)CC(C)(C)C(=O)O)C(C)(C)[C@@H]5CC[C@]43C)[C@@H]12 — CA-SP1 accumulation (human immunodeficiency virus 1; western blot; HEK293T transfected, subtype B NL4-3, virion lysates; 100 nM; baseline: total CA): 70 to 75%
O=c1[nH]cc(C(c2ccccc2Br)c2c[nH]c(=O)[nH]c2=O)c(=O)[nH]1 — IC50 (HIV-1 subtype C; viral replication, item: p24): 112 µg/mL (≈ 287 µM)
C=C(C)[C@@H]1CC[C@]2(CNCCN3CCS(=O)(=O)CC3)CC[C@]3(C)[C@H](CC[C@@H]4[C@@]5(C)CC[C@H](OC(=O)CC(C)(C)C(=O)O)C(C)(C)[C@@H]5CC[C@]43C)[C@@H]12 — CA-SP1 accumulation (human immunodeficiency virus 1; western blot; HEK293T transfected, subtype B NL4-3, virion lysates; 100 nM; baseline: total CA): 70 to 75%
CC(C)C[C@H](NC(=O)[C@H](C)N)C(=O)N[C@H](Cc1ccccc1)C(=O)NCCC(=O)O — leaf development (Lolium multiflorum; herbicide; agar; 67 µg/mL, 12 d): inactive
CC(=O)[O-].O.[Cu+2].[O-]c1ccc(Br)cc1C=NCCN1CCOCC1 — inhibition zone diameter (Chromobacterium violaceum; 20 µL of 100 µM per disc): 14 mm
CC(=O)SCC(=O)c1ccc(NS(=O)(=O)c2ccc(OCCCN(C)C)cc2)nc1 — IC50 (Lucilia cuprina; pupation; LS strain, larvae on impregnated cotton wool; 216 h): 75.3 µg
c1ccc(-c2nc(-c3ccc4ccccc4c3)c[nH]2)cc1 — worm killing (Schistosoma mansoni; female worms; 25 µM): 0%
COc1ccc(Cn2ccc3ccc(C(=O)NO)cc32)cc1 — IC50 (Lucilia cuprina; larval weight gain; LS strain, larvae on impregnated cotton wool; 24 h): > 1000 µg
CNc1cc(C(=O)Nc2ccc(Cl)cc2)ccc1OC — serum DHBV DNA (duck hepatitis B virus; quantitative PCR; DHBV-infected Pekin ducklings, serum; oral, 100 mg/kg): inhibited
C=CCSSC — electroantennogram response (Bradysia odoriphaga; female antennae; 10 µg/µL, 12 h after emergence, after OBP10 RNAi; baseline: dsGFP-injected control): decreased
COc1ccc(-n2c(=O)c(C(=O)C3C(=O)CCCC3=O)nc3c(Cl)cccc32)cc1 — ED90 (Monochoria vaginalis; herbicidal activity, paddy pot test, visual rating; 28 days): 6.3 g a.i./10 a
COc1ccc(-c2ccn(CC[C@](C)(C(=O)NO)S(C)(=O)=O)c(=O)c2)c(F)c1 — MIC90 (Enterobacter spp): 0.5 µg/mL (≈ 1.21 µM)
Cc1cc(Cl)ccc1OCCCC(=O)NO — IC50 (Lucilia cuprina; pupation; LS strain, larvae on impregnated cotton wool; 216 h): > 1000 µg
Brc1ccc(-c2c[nH]c(-c3ccccn3)n2)cc1 — EC50 (Schistosoma mansoni; worm killing; male worms): 32000 nM
Nc1ncnc2c1c(I)cn2[C@@H]1O[C@H](CO)C[C@H]1O — EC50 (Trypanosoma vivax; parasite growth, resazurin; 24 h): 56 nM
CC1(CCCCCCCCCCCCOCCCOP(=O)(O)CO[C@H](CO)Cn2ccc(N)nc2=O)COC1 — selectivity index (Betapolyomavirus hominis; qPCR; Gardner; baseline: CC50 over EC50): 67
Nc1ncnc2c1c(Br)cn2[C@@H]1O[C@H](CO)C[C@H]1O — EC50 (Trypanosoma vivax; parasite growth, resazurin; 24 h): 18 nM
O=C(CCCCCCNC(=O)c1cnc(N(c2ccccc2)c2ccccc2)nc1)NO — IC50 (Lucilia cuprina; larval weight gain; LS strain, larvae on impregnated cotton wool; 24 h): > 1000 µg
COC1C=COC2(C)Oc3c(C)c(O)c4c(c3C2=O)C2=NC3(CCN(CC(C)C)CC3)NC2=C(NC(=O)C(C)=CC=CC(C)C(O)C(C)C(O)C(C)C(OC(=O)Nc2cnccn2)C1C)C4=O (stereo not drawn) — lung CFU reduction (Mycobacteroides abscessus; subsp. abscessus ATCC 19977, GM-CSF knockout mouse, acute infection, lung; oral, 25 mg/kg daily, 7 doses; baseline: start of treatment): > 2 log CFU
O=c1[nH]cc(C(c2ccccc2F)c2c[nH]c(=O)[nH]c2=O)c(=O)[nH]1 — antiviral activity (HIV-1 subtype C; item: p24; concentration not given): inactive
CC1COCCN1c1nc(NCc2cccnc2C(F)(F)F)c2cccnc2n1 (stereo not drawn) — EC50 (Brugia malayi; Wolbachia load, wsp/gst qPCR; microfilariae; 6 d): 150 nM
CN(C)CCCSC(=S)N1CCN(C(=O)/C=C/c2coc3ccccc3c2=O)CC1 — inhibition (CMV; virus inactivation; 500 µg/mL, mean): 76.6%
CC1(CCCCCCCCCCOCCCOP(=O)(O)CO[C@H](CO)Cn2ccc(N)nc2=O)COC1 — selectivity index (human adenovirus 5; cytopathic effect; Adenoid 75; baseline: CC50 over EC50): > 5
Nc1ncnc2c1c(-c1ccccn1)cn2[C@@H]1O[C@H](CO)[C@@H](O)[C@H]1O — EC50 (Trypanosoma vivax; parasite growth, resazurin; 24 h): 12900 nM
O=c1c2ccccc2sn1-c1cc(Br)cc(Br)c1 — MIC (Aspergillus flavus; growth, broth dilution; ATCC MYA-3631; MIC-0): 12.5 µg/mL

A few entries again:
O=C(/C=C/c1ccccc1)N[C@@H](CCCCCC(=O)NO)C(=O)Nc1cccc2cccnc12 — IC50 (Lucilia cuprina; larval weight gain; LS strain, larvae on impregnated cotton wool; 24 h): 13.9 µg
C=CCSSC — electroantennogram response (Bradysia odoriphaga; female antennae; 10 µg/µL, 12 h after emergence, after OBP10 RNAi; baseline: dsGFP-injected control): decreased
CCOC(=O)C1=C(C)NC2=C(C(=O)CC(C)(C)C2)C1c1ccc(OCC(=O)NN=Cc2cccc([N+](=O)[O-])c2)cc1OCC(=O)NN=Cc1cccc([N+](=O)[O-])c1 (stereo not drawn) — inhibition zone diameter (Listeria monocytogenes; NCTC 5348; concentration not given, 24 h, 37 °C): 8.1 ± 0.6 mm
CC(=O)[O-].O.[Cu+2].[O-]c1ccc(Br)cc1C=NCCN1CCOCC1 — inhibition zone diameter (Chromobacterium violaceum; 20 µL of 100 µM per disc): 14 mm
CC1(CCCCCCCCCCCCOCCCOP(=O)(O)CO[C@H](CO)Cn2ccc(N)nc2=O)COC1 — selectivity index (Betapolyomavirus hominis; qPCR; Gardner; baseline: CC50 over EC50): 67
C=C(C)[C@@H]1CC[C@]2(CNCCN3CCN(S(C)(=O)=O)CC3)CC[C@]3(C)[C@H](CC[C@@H]4[C@@]5(C)CC[C@H](OC(=O)CC(C)(C)C(=O)O)C(C)(C)[C@@H]5CC[C@]43C)[C@@H]12 — CA-SP1 accumulation (human immunodeficiency virus 1; western blot; HEK293T transfected, subtype B NL4-3, virion lysates; 100 nM; baseline: total CA): 70 to 75%
Cc1cc(Cl)ccc1OCCCC(=O)NO — IC50 (Lucilia cuprina; pupation; LS strain, larvae on impregnated cotton wool; 216 h): > 1000 µg
